Earlier results, collected from citations in different studies.
Lines come from different studies, so protocols differ. ≈ marks a conversion by molar mass, not a printed value.
UniProt P41143, sequence (whole entry, looked up): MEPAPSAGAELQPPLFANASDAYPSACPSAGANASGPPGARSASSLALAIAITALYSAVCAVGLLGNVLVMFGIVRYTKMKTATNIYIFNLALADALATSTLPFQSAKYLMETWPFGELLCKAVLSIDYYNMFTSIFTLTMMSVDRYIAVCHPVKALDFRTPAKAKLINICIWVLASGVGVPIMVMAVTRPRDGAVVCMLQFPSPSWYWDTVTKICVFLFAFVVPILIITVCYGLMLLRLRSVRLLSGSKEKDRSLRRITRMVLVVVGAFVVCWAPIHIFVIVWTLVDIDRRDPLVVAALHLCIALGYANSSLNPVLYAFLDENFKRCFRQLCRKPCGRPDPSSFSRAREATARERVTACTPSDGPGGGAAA

CC[C@H](C)CCCCC(=O)N[C@@H](CCN)C(=O)N[C@H](C(=O)N[C@@H](CCN)C(=O)N[C@H]1CCNC(=O)[C@H]([C@@H](C)O)NC(=O)[C@H](CCN)NC(=O)[C@H](CCN)NC(=O)[C@H](CC(C)C)NC(=O)[C@@H](CC(C)C)NC(=O)[C@H](CCN)NC1=O)[C@@H](C)O
plasma concentration threshold (nephrotoxicity risk; patients, plasma): > 2.5 mg/L

CCCSc1ccc2nc(NC(=O)OC)[nH]c2c1
solubility (intestinal fluid): ~1 µg/mL (≈ 3.77 µM)

CC1(C)NC(=O)N(c2ccc(F)c(C(F)(F)F)c2)C1=O
ED50 (Schistosoma mansoni; adult, mouse): 15 mg/kg

CC(COc1ccc(Oc2ccccc2)cc1)Oc1ccccn1 (centres unmarked)
IC50 (CYP6P9a (Anopheles funestus, UniProt B5AII6)): 9.9 µM

c1ccc2c(c1)OCC(C1=NCCN1)O2 (centres unmarked)
IC50 (imidazoline I2 receptor, central; radioligand binding): 0.012 µM

Cc1c(C(=O)Nc2ccc(N3C[C@@H](C)O[C@@H](C)C3)nc2)cccc1-c1ccc(OC(F)(F)F)cc1
hyaluronan level at nadir (mouse; oral, 40 mg/kg/day, day 10; reference: baseline): 42.7%

OCCN1CCN(CCC=C2c3ccccc3Sc3ccc(C(F)(F)F)cc32)CC1
log2 fold change (MCF7; microarray, measured: SLC38A2 mRNA; concentration not given; reference: DMSO): 1.21

Oc1ccc2c3c1O[C@H]1c4[nH]c5ccccc5c4C[C@@]4(O)[C@@H](C2)N(CC2CC2)CC[C@]314
Hill coefficient (Delta-type opioid receptor (OPRD1, Homo sapiens, UniProt P41143); binding): 1

Excerpt of the above:
OCCN1CCN(CCC=C2c3ccccc3Sc3ccc(C(F)(F)F)cc32)CC1
log2 fold change (MCF7; microarray, measured: SLC38A2 mRNA; concentration not given; reference: DMSO): 1.21
